# Results from different studies.
# Parts stem from different laboratories: compare values within a part only.
# Chain of UniProt Q6P2M8 (whole entry, looked up): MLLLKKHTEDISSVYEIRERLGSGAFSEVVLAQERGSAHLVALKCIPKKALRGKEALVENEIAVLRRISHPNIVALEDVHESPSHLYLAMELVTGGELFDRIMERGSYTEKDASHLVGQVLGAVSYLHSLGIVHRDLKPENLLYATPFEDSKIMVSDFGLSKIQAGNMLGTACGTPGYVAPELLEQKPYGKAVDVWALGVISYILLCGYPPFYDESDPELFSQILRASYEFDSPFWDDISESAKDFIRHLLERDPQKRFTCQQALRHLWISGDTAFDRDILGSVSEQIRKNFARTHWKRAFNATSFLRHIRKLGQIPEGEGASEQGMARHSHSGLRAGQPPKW
# Chain of UniProt P08581 (whole entry, looked up): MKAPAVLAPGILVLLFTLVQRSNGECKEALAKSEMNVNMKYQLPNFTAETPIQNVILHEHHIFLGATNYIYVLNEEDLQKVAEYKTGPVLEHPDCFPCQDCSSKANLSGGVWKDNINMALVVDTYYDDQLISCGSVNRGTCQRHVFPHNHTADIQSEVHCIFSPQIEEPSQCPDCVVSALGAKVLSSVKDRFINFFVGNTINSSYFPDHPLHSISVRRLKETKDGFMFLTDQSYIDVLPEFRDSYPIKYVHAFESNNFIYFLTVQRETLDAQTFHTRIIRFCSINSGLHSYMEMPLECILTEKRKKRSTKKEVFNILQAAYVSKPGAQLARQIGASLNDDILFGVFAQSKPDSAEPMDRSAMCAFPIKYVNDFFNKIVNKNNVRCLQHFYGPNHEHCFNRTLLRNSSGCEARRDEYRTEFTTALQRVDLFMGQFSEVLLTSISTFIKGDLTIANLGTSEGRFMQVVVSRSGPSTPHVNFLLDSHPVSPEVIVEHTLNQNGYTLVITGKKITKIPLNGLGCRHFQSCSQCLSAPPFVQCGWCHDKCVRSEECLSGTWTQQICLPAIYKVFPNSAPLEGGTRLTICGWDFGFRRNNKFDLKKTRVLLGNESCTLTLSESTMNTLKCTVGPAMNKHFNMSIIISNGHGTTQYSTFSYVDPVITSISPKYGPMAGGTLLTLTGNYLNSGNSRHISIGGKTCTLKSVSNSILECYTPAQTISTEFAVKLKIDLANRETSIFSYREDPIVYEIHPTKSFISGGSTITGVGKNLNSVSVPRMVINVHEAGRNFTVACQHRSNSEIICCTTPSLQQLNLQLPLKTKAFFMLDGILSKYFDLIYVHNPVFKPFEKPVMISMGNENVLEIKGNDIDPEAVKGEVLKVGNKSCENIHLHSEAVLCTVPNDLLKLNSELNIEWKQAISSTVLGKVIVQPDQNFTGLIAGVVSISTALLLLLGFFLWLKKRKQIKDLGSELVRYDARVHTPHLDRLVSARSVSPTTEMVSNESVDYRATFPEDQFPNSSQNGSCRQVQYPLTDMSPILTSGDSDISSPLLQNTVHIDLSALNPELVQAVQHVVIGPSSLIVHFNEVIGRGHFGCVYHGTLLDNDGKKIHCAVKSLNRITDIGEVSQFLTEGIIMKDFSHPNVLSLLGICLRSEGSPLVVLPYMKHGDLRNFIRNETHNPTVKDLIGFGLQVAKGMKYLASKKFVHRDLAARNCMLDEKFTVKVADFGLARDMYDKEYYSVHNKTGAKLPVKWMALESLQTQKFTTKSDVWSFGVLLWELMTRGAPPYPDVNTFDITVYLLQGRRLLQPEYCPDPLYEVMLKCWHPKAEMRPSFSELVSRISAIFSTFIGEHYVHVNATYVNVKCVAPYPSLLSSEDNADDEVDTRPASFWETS
# Chain of UniProt P06493 (whole entry, looked up): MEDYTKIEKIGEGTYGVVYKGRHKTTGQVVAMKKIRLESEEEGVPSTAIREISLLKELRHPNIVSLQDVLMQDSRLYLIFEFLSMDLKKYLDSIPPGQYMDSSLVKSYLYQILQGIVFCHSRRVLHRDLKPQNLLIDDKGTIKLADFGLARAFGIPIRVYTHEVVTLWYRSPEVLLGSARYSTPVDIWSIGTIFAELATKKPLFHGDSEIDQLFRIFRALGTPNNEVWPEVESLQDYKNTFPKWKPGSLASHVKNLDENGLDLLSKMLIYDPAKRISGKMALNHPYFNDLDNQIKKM
# Chain of UniProt Q96L34 (whole entry, looked up): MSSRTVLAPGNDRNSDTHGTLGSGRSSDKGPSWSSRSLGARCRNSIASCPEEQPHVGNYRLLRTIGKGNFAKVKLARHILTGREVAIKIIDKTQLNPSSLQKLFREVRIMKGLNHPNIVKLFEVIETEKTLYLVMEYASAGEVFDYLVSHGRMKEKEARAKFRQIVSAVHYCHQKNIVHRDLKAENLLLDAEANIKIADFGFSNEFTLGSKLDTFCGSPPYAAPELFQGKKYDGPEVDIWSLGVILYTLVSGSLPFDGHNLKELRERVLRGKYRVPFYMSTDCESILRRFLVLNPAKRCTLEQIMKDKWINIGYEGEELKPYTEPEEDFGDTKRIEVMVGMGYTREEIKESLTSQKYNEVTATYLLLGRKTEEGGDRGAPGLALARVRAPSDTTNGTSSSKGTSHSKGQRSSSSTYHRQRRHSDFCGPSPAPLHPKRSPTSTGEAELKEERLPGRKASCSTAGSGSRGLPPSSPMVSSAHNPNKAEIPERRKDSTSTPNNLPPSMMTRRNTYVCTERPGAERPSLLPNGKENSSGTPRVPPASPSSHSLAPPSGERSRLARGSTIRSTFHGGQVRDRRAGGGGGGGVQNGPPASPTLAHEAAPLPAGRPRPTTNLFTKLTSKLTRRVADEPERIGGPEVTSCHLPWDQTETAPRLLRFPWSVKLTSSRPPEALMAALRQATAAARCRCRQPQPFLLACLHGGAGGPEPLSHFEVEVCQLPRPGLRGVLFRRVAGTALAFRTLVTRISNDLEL
# Chain of UniProt Q8WXR4 (whole entry, looked up): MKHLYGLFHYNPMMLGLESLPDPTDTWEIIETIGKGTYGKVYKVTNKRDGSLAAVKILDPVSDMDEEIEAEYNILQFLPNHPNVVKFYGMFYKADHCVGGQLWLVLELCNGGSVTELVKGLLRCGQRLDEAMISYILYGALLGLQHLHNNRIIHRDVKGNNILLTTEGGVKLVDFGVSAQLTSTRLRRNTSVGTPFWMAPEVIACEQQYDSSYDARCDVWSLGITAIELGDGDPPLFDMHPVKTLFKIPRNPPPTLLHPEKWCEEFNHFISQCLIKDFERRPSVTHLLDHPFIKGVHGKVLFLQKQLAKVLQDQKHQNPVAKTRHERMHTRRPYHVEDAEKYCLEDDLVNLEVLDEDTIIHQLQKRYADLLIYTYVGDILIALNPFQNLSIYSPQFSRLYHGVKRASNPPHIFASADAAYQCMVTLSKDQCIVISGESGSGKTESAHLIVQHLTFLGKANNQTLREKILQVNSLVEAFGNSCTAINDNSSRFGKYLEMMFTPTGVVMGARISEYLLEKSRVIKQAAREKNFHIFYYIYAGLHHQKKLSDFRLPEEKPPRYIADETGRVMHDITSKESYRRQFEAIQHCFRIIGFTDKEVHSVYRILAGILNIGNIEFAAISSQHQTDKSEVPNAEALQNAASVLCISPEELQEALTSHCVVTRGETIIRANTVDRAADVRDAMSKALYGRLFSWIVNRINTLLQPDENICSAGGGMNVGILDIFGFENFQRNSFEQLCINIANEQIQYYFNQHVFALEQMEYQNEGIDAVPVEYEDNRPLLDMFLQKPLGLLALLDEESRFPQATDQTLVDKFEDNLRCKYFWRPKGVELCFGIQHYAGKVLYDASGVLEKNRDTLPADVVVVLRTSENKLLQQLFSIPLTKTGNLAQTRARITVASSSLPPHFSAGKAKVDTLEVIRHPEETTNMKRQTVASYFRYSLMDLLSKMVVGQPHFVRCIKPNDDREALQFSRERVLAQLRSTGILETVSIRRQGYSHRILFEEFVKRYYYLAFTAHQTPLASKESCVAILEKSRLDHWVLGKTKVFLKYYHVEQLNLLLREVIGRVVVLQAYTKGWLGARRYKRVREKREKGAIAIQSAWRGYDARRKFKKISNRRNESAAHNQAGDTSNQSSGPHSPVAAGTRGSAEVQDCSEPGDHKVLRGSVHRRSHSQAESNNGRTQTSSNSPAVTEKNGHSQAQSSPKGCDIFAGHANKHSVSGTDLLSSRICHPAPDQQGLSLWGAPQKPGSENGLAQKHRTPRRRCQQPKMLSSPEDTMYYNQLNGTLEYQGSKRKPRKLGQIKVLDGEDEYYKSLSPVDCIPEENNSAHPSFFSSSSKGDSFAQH

# Study 1
# Target: D(2) dopamine receptor (DRD2, Homo sapiens, UniProt P14416)
# Chain of UniProt P14416 (whole entry, looked up): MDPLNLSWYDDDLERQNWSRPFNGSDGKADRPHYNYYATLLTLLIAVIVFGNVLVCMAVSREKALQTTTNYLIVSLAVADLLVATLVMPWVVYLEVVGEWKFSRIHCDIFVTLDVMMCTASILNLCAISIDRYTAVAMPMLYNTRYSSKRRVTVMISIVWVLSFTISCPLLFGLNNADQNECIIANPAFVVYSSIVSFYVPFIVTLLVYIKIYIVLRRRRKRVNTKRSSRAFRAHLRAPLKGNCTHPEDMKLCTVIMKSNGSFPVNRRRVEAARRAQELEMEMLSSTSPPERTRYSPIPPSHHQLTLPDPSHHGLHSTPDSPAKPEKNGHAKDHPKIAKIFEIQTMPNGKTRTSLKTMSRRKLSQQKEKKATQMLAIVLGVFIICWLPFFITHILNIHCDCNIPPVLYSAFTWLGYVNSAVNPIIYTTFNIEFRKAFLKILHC
# Effect on: ligand displacement
# Tested at: 10 µM
SMILES,inhibition [%]
CN1CCN(c2cnc3c(C4CCN(C(=O)c5ccc(OC(F)(F)F)cc5N)CC4)ncnc3c2)CC1,-10.4
O=C(NCCCC1CCCCC1)c1ccc(CNC(=O)c2cnn(-c3ccccc3)c2C(F)(F)F)cc1,15.8
CC(=O)Nc1ncc(CN2CCC[C@H](Cc3cc(C)nc(C)c3)C2)s1,0.63
CN([C@@H]1CCc2c(CC(=O)O)c3ccccc3n2C1)S(=O)(=O)c1ccc(F)cc1,-31.4
CC1=C(C#N)C(c2ccc3[nH]nc(C)c3c2)C(C#N)=C(C)N1,-7.07
O=C(NS(=O)(=O)c1ccc(NCC2CCOCC2)c([N+](=O)[O-])c1)c1ccc(N2CCN(Cc3ccc(C(F)(F)F)cc3-c3ccc(Cl)cc3)CC2)cc1Oc1cnc2[nH]ccc2c1,-22.4
Nc1cnc(N2CCc3cc(S(=O)(=O)Nc4c(F)cc(Cl)cc4F)cc(N4CCCC4=O)c32)nc1,-0.42
CCOc1ccc(S(=O)(=O)Nc2ccc(Cl)cc2C#Cc2cnc(C(=O)O)cc2OC)c2ncccc12,9.9
Cc1ccccc1Oc1cc(-n2c(=O)cc(C(F)(F)F)[nH]c2=O)c2ccccc2c1Cl,-12.2
COc1cc(N[C@@H]2CCCC[C@]2(O)C(F)(F)F)ccc1F,-4.34

# Study 2
# Target: Calcium/calmodulin-dependent protein kinase type II subunit alpha (CAMK2A, Homo sapiens, UniProt Q9UQM7)
# Chain of UniProt Q9UQM7 (whole entry, looked up): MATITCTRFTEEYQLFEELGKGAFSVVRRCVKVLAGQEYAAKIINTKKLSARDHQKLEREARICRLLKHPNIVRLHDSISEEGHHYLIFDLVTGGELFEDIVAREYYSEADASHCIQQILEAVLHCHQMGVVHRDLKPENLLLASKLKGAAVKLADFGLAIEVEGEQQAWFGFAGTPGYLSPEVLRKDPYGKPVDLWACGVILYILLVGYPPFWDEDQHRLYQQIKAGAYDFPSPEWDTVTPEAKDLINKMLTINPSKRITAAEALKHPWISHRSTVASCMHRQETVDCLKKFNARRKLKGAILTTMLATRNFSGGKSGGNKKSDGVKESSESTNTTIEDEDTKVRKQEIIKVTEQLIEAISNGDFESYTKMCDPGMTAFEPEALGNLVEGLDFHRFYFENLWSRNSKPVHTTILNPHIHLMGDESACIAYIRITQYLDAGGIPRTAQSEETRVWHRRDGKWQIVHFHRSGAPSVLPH
# Effect on: enzyme activity
# Action: inhibitor
# Tested at: 10 µM
Structure (SMILES),inhibition
C/C(O)=C(\C#N)C(=O)Nc1ccc(C(F)(F)F)cc1,-6%
CCN1CCCC1CNC(=O)c1cc(S(N)(=O)=O)ccc1OC (stereo not drawn),-9%
C[C@H]1Oc2cc(cnc2N)-c2c(nn(C)c2C#N)CN(C)C(=O)c2ccc(F)cc21,4%
COc1cc2c(cc1OC)[C@@H](Cc1cc(OC)c(OC)c(OC)c1)[N+](C)(CCCOC(=O)CC/C=C/CCC(=O)OCCC[N+]1(C)CCc3cc(OC)c(OC)cc3[C@H]1Cc1cc(OC)c(OC)c(OC)c1)CC2 (stereo partly drawn),11%
O=C1C[C@@](O)(C(=O)O)[C@@H](C(=O)O)O1,4%

# Study 3
# Compound: CC(C)n1cnc(-c2ccc(F)cc2)c1-c1ncc(C(=O)Nc2ccc(N3CCN(C)CC3)cc2)[nH]1
# Technique: phase 2a clinical trial
# Host: patients with idiopathic pulmonary fibrosis
assay,setting,patients with treatment-emergent adverse events [%]
item: lumbar vertebral fracture,"30 mg once daily, Grade 5, maximum intensity",0
item: left bundle branch block,"30 mg once daily, Grade 5",0
item: investigations (SOC),"60 mg once daily, Grade 3",0
item: metabolism and nutrition disorders (SOC),"30 mg once daily, Grade 5",0
item: left ventricular dysfunction,"30 mg once daily, Grade 3",0
item: idiopathic pulmonary fibrosis,"dose not given, Grade 5, all drug arms",0
item: electrocardiogram high voltage,"30 mg once daily, Grade 1",0
item: protein urine present,"60 mg once daily, Grade 3",0
item: interstitial lung disease,"60 mg once daily, Grade 1",0
item: gastro-oesophageal reflux disease,"dose not given, Grade 4, all drug arms total",0
item: gastro-oesophageal reflux disease,"dose not given, Grade 3, all drug arms total",0

# Study 4
# Compound: Oc1cccc(-c2nc(N3CCOCC3)c3oc4ncccc4c3n2)c1
# Effect on: enzyme activity
# Action: inhibitor
# Tested at: 0.5 µM
# Relative to: control
target,remaining activity [%]
"Dual specificity mitogen-activated protein kinase kinase 1 (MAP2K1, Homo sapiens, UniProt Q02750)",97.7
"Calcium/calmodulin-dependent protein kinase type 1B (PNCK, Homo sapiens, UniProt Q6P2M8)",96.7
"Cyclin-dependent kinase 1, with cyclin A (CDK1, Homo sapiens, UniProt P06493)",84.4
"Ribosomal protein S6 kinase alpha-4 (RPS6KA4, Homo sapiens, UniProt O75676)",104
"G protein-coupled receptor kinase 4 (GRK4, Homo sapiens, UniProt P32298)",102
"Mitogen-activated protein kinase 1 (MAPK1, Homo sapiens, UniProt P28482)",89
"Discoidin domain-containing receptor 2 (DDR2, Homo sapiens, UniProt Q16832)",94.6
"Serine/threonine-protein kinase Nek3 (NEK3, Homo sapiens, UniProt P51956)",92.9
"MAP/microtubule affinity-regulating kinase 4 (MARK4, Homo sapiens, UniProt Q96L34)",93.4
"Rho-associated protein kinase 1 (ROCK1, Homo sapiens, UniProt Q13464)",94.9
"Serine/threonine-protein kinase PLK3 (PLK3, Homo sapiens, UniProt Q9H4B4)",94.6
"Serine/threonine-protein kinase PAK 3 (PAK3, Homo sapiens, UniProt O75914)",97.5
"cGMP-dependent protein kinase 2 (PRKG2, Homo sapiens, UniProt Q13237)",89.2
"Cyclin-dependent kinase 9, with cyclin K (CDK9, Homo sapiens, UniProt P50750)",96
"Serine/threonine-protein kinase DCLK2 (DCLK2, Homo sapiens, UniProt Q8N568)",102
"Hepatocyte growth factor receptor (MET, Homo sapiens, UniProt P08581)",97.8
"Myosin-IIIb (MYO3B, Homo sapiens, UniProt Q8WXR4)",81.3
"Tyrosine-protein kinase TXK (TXK, Homo sapiens, UniProt P42681)",94.8
"Misshapen-like kinase 1 (MINK1, Homo sapiens, UniProt Q8N4C8)",96
